Measured values collected from several papers.
Numbered parts are unrelated; each lists some results of a single study. “And” joins repeats or separate records; there may be more than shown.
Sequence of UniProt Q9H4B4 (whole entry, looked up): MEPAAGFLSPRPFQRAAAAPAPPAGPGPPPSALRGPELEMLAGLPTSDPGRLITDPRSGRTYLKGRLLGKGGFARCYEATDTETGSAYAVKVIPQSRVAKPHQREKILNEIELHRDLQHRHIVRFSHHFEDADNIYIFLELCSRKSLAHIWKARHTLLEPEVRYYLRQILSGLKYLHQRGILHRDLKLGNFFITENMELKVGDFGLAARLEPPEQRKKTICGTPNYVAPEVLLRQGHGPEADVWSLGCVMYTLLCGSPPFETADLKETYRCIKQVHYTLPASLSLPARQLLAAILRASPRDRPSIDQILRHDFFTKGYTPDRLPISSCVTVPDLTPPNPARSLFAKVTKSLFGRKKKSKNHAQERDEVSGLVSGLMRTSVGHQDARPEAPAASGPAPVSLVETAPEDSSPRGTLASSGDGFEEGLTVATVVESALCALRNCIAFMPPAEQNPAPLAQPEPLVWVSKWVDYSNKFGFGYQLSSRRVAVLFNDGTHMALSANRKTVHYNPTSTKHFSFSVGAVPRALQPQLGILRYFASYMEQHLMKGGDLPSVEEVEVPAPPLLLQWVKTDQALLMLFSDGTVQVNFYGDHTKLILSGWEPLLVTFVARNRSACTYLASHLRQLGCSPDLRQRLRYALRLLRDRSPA
Sequence of UniProt P42681 (whole entry, looked up): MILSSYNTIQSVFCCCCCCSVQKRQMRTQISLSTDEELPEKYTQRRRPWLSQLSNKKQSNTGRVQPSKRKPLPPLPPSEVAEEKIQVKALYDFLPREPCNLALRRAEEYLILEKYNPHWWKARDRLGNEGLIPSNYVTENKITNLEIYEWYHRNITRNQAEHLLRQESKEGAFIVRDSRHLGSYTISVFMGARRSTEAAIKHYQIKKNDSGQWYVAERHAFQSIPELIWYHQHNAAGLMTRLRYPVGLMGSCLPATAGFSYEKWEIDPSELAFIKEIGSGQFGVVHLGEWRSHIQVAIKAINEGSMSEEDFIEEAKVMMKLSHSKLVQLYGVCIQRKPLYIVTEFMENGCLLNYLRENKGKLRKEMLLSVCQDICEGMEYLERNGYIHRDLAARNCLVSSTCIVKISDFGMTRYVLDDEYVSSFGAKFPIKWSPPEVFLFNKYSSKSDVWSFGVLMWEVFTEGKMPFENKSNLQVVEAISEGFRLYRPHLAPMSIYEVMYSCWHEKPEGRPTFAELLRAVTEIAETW
Sequence of UniProt Q9H093 (whole entry, looked up): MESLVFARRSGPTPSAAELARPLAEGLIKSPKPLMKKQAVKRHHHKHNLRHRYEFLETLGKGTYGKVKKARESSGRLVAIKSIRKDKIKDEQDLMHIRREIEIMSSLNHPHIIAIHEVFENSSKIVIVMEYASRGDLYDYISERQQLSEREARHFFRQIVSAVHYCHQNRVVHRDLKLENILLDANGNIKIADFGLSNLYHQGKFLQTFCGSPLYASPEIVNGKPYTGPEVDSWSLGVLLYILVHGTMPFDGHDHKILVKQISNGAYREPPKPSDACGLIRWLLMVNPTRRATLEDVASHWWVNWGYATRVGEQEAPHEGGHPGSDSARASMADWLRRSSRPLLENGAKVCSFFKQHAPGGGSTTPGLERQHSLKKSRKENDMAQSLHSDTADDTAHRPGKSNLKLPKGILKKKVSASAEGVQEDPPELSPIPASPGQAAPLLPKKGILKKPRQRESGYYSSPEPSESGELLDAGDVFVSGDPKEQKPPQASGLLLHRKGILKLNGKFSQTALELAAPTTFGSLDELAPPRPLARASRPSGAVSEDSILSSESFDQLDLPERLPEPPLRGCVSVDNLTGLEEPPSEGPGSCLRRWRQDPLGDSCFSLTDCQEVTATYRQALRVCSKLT
Sequence of UniProt Q96GD4 (whole entry, looked up): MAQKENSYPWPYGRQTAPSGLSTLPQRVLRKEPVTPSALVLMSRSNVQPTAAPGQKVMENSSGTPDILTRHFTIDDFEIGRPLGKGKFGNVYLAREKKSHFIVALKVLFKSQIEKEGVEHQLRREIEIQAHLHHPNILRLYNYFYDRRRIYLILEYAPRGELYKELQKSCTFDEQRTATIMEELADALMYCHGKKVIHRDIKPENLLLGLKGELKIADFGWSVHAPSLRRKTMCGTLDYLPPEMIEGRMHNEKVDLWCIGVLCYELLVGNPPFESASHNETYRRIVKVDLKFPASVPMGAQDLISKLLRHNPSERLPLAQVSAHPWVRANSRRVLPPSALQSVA
Sequence of UniProt P32298 (whole entry, looked up): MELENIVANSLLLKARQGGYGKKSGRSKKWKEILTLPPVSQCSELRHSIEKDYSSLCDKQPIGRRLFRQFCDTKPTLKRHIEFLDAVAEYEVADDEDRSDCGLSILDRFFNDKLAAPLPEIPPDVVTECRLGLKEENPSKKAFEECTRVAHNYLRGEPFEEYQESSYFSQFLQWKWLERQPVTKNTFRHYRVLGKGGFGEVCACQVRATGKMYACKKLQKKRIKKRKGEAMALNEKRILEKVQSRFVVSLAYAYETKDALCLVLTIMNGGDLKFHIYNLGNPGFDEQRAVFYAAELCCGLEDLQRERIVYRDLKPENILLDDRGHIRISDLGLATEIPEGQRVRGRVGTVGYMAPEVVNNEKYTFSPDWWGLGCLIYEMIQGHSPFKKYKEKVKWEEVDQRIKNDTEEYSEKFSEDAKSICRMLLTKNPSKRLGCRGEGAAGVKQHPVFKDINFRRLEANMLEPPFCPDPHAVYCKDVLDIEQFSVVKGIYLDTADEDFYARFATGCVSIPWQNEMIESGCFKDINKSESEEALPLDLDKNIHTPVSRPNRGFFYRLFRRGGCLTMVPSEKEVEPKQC
Sequence of UniProt O14730 (whole entry, looked up): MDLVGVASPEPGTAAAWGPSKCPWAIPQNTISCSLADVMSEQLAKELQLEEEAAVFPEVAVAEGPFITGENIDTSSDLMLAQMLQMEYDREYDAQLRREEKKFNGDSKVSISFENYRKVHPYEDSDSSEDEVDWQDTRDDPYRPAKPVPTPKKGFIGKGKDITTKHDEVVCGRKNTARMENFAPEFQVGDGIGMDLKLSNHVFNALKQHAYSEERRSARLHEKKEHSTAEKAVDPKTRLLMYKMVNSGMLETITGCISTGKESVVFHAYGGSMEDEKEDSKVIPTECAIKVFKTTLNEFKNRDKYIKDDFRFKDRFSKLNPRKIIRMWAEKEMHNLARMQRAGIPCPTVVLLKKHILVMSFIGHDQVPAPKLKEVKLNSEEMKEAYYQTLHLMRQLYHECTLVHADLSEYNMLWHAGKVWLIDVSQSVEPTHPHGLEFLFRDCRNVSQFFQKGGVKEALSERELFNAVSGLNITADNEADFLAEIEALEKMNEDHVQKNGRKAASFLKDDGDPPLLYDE

Block 1
SMILES: C[C@@H]1CN(c2ccc(-c3cc(C(=O)NCCOCCOCCOCCOCCNC(=O)Cn4cc(-c5[nH]cc(C(=O)N[C@@H](CC(N)=O)c6ccc(F)c(Cl)c6)c5-c5ccc(Cl)cc5F)cn4)ccc3F)cc2NC(=O)c2c[nH]c(=O)cc2C(F)(F)F)C[C@H](C)N1C
Read-out: thermal unfolding
Technique: differential scanning fluorimetry
Concentration: 5.5 µM
Reading: higher = more unfolded
DCAF1: DDB1- and CUL4-associated factor 1 (DCAF1, Homo sapiens, UniProt Q9Y4B6)
Sequence of UniProt Q9Y4B6 (whole entry, looked up): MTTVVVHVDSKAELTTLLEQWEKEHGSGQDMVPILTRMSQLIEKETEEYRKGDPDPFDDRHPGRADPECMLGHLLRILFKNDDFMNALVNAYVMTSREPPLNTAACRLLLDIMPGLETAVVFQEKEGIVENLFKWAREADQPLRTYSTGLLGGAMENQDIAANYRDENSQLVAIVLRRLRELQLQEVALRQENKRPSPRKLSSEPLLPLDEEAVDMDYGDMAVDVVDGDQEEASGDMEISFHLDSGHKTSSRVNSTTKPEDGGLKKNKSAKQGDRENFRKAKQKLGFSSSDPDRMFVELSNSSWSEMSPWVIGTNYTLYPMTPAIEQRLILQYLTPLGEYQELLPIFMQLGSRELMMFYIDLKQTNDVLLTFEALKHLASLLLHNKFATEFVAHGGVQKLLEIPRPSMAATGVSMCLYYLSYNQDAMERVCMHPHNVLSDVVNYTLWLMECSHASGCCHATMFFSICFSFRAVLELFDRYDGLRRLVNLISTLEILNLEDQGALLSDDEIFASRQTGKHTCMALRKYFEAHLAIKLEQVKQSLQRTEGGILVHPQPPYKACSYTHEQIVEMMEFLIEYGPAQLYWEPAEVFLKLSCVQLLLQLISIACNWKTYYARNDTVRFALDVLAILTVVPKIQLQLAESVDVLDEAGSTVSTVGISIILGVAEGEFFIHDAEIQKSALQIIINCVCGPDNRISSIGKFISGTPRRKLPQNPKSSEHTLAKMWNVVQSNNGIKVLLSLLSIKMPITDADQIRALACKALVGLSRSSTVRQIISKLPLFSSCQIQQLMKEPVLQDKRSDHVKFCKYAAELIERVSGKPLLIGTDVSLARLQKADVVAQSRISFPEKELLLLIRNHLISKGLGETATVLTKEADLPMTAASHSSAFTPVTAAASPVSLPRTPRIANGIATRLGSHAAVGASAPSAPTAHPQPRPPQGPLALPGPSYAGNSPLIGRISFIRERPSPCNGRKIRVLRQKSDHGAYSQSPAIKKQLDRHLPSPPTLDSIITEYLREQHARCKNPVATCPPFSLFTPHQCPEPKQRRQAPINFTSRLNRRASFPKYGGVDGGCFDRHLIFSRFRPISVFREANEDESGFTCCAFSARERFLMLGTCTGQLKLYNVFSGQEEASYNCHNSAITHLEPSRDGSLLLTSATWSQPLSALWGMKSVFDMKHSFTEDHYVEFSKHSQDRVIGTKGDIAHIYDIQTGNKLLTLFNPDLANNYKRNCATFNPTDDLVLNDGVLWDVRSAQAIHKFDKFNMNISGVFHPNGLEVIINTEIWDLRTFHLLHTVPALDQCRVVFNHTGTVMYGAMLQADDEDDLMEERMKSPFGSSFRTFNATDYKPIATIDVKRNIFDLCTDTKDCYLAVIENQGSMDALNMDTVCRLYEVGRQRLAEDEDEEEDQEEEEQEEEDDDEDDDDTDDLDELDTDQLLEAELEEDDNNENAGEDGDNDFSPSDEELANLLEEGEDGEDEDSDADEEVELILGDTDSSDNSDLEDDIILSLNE
| target | setting | SYPRO Orange fluorescence [a.u.] |
| --- | --- | --- |
| WDR5 (Homo sapiens, UniProt P61964) | 45 °C | 14300 |
| DCAF1 | 88.21 °C | 36800 |
| DCAF1 | 54.01 °C | 17800 |
| DCAF1 | 86.61 °C | 38200 |
| DCAF1 | 59.41 °C | 35000 |
| DCAF1 | 94.21 °C | 30700 |
| DCAF1 | 66.01 °C | 56600 |

Block 2
Compound: Cc1ncsc1-c1ccc(C(CO)NC(=O)C2CC(O)CN2C(=O)C(C(C)C)n2cc(-c3ccc(COc4c(-c5c(C)c(F)cc6[nH]ncc56)c(C5CC5)cc5c(N6CC7CC6CN7)nc(OC6CCOCC6)nc45)cc3)nn2)cc1 (stereo not shown)
| system | setting | tumour volume |
| --- | --- | --- |
| mouse, lung LXFA sample B PDX | 10 mg/kg twice weekly, day 18 | 336 mm3 and 171 mm3 and 53.1 mm3 and 157 mm3 and 274 mm3 and 343 mm3 and 140 mm3 and 120 mm3 |
| HPAC xenograft, mouse | 30 mg/kg twice weekly, day 4 | 136 mm3 and 152 mm3 and 121 mm3 and 278 mm3 |
| mouse, PK-59 xenograft | 10 mg/kg, day 21 | 245 mm3 and 212 mm3 and 278 mm3 and 255 mm3 and 223 mm3 |
| mouse, PK-59 xenograft | 30 mg/kg, day 17 | 81.5 mm3 and 88.3 mm3 and 135 mm3 and 114 mm3 and 94.4 mm3 |
| mouse, HT-29 xenograft | sc, 30 mg/kg once daily, day 3 | 351 mm3 and 334 mm3 and 274 mm3 and 303 mm3 and 296 mm3 |
| mouse, A-375 xenograft | sc, 30 mg/kg once daily, day 8 | 395 mm3 and 258 mm3 and 490 mm3 and 354 mm3 and 438 mm3 |
| KP-4 xenograft, mouse | 30 mg/kg twice weekly, day 7 | 226 mm3 and 207 mm3 and 223 mm3 and 268 mm3 |

Block 3
Compound: CC[C@@]1(c2cccc(C(F)(F)F)c2)C2=C(Nc3n[nH]cc31)[C@H](F)C(C)(C)CC2=O (single isomer, unassigned)
Concentration: 1 µM
| target | test | how to read | remaining binding [%] |
| --- | --- | --- | --- |
| TAOK1 (Homo sapiens, UniProt Q7L7X3) | binding, competition with immobilised ligand |  | 100 |
| TXK (Homo sapiens, UniProt P42681) | kinase binding, KINOMEscan | reference: DMSO control | 100 |
| DYRK1A (Homo sapiens, UniProt Q13627) | binding, competition with immobilised ligand |  | 71 |
| PIP4K2B (Homo sapiens, UniProt P78356) | binding, competition with immobilised ligand |  | 100 |
| AKT1 (Homo sapiens, UniProt P31749) | kinase binding, KINOMEscan | reference: DMSO control | 100 |
| RIOK3 (Homo sapiens, UniProt O14730) | kinase binding, KINOMEscan | reference: DMSO control | 100 |
| FLT3 (Homo sapiens, UniProt P36888, N841I) | kinase binding, KINOMEscan | reference: DMSO control | 100 |
| GRK4 (Homo sapiens, UniProt P32298) | binding, competition with immobilised ligand |  | 100 |
| AAK1 (Homo sapiens, UniProt Q2M2I8) | kinase binding, KINOMEscan | reference: DMSO control | 88 |
| NUAK2 (Homo sapiens, UniProt Q9H093) | kinase binding, KINOMEscan | reference: DMSO control | 100 |
| PLK3 (Homo sapiens, UniProt Q9H4B4) | binding, competition with immobilised ligand |  | 95 |
| NEK9 (Homo sapiens, UniProt Q8TD19) | kinase binding, KINOMEscan | reference: DMSO control | 100 |
| Aurora kinase B (AURKB, Homo sapiens, UniProt Q96GD4) | binding, competition with immobilised ligand |  | 90 |

Single results of other studies
| Compound | system | setting | measurement | value |
| --- | --- | --- | --- | --- |
| COc1cc(C(=O)OCCCN2CCCN(CCCOC(=O)c3cc(OC)c(OC)c(OCc4ccc([N+](=O)[O-])cc4)c3)CC2)cc(OC)c1OC | naive mice, mixed sexes | intrathecal, 100 nmol, 60 min | rotarod fall latency | 80 s and 102 s and 70 s and 90 s and 72 s and 97 s |

Repeated from above (block 1):
| target | setting | SYPRO Orange fluorescence [a.u.] |
| --- | --- | --- |
| DCAF1 | 94.21 °C | 30700 |
| DCAF1 | 66.01 °C | 56600 |
